Published values pooled from the literature.
Protocols differ between the studies behind these lines. Several values in a cell are separate wells, animals, samples, runs or records. ± marks the error that the study gave.
Cell line: A498

Compound | assay | setting | scale | quantity | result
CCN(CC)c1ccc(C=NNC(=O)CSc2nc3ccccc3c(=O)n2Cc2ccc(S(N)(=O)=O)cc2)c(O)c1 | NCI five-dose screen |  |  | TGI | > 100 µM
O=C(Nc1nnc2n3c(=S)[nH][nH]c3nc(-c3ccc(Cl)cc3)c1-2)c1ccccc1 | SRB | 10 µM, NCI60 single-dose screen | reference: untreated | cell growth | 101%
CNC(=O)c1cc(Oc2ccc(NC(=O)Nc3ccc(Cl)c(C(F)(F)F)c3)cc2)ccn1 | cell growth, SRB | 72 h |  | IC50 | 29.4 ± 12 µg/mL
CCn1cc(-c2cc(Cn3ccoc3=N)cc3c2CCN([C@@H](C)c2cc(OC)ccn2)C3=O)c(C(F)(F)F)n1 | cell growth, inhibitor | 120 h |  | EC50 | > 30 µM
Cc1cc(=O)[nH]n1-c1nc(-c2ccc(Cl)cc2)c2c(NC(=O)c3ccccc3)nnc-2[nH]1 | SRB | 10 µM, NCI60 single-dose screen | reference: untreated | cell growth | 115%
Cn1cncc1C1=CN(c2ncnc3[nH]cnc23)CCS1 |  | renal cancer |  | TGI | 18.2 µM
COc1ccc2c(c1)C(=O)C(=O)N2CCn1ncc2c(=O)[nH]cnc21 | cell growth, SRB | 72 h |  | IC50 | 10.2 ± 3.51 µg/mL
COC(=O)/C=C1\C(=O)C=C2C3CC4CC(CCC4(C)N21)C3(C)NC(C)=O (stereo not shown) | cell growth | NCI screen |  | IC50 | 18.7 µM
O=C(Nc1nnc2[nH]c(=S)[nH]c(-c3ccc(Cl)cc3)c1-2)c1ccccc1 | SRB | 10 µM, NCI60 single-dose screen | reference: untreated | cell growth | 97.3%
O=C1C(=O)N(CCn2ncc3c(=O)[nH]cnc32)c2ccccc21 | cell growth, SRB | 72 h |  | IC50 | 18.3 ± 2.29 µg/mL
C#C[C@@]1(O)[C@@H](CO)O[C@@H](n2cc(I)c3c(N)ncnc32)[C@@H]1O | SRB | NCI-60 screen |  | TGI | 1.03 µM and 1.98 µM
CCOC(=O)CSc1nc(-c2ccc(Cl)cc2)c2c(NC(=O)c3ccccc3)nnc-2[nH]1 | SRB | 10 µM, NCI60 single-dose screen | reference: untreated | cell growth | 108%
COc1ccc2c(c1)C(=O)C(=O)N2CCn1cnc2c(N)ncnc21 | cell growth, SRB | 72 h |  | IC50 | 60.4 ± 6.48 µg/mL
O=C1NC(=NCc2cccs2)S/C1=C\c1ccc2ncccc2c1 | MTS | NCI60 panel |  | IC50 | > 10 µM
Cc1cc(-c2ccccc2)n(-c2nc(-c3ccc(Cl)cc3)c3c(NC(=O)c4ccccc4)nnc-3[nH]2)n1 | SRB | 10 µM, NCI60 single-dose screen | reference: untreated | cell growth | 92.1%
C#C[C@@]1(O)[C@@H](CO)O[C@@H](n2cc(F)c3c(N)ncnc32)[C@@H]1O | SRB | NCI-60 screen |  | TGI | 2.27 µM

Some of these lines once more:
Compound | assay | setting | scale | quantity | result
O=C1C(=O)N(CCn2ncc3c(=O)[nH]cnc32)c2ccccc21 | cell growth, SRB | 72 h |  | IC50 | 18.3 ± 2.29 µg/mL
C#C[C@@]1(O)[C@@H](CO)O[C@@H](n2cc(I)c3c(N)ncnc32)[C@@H]1O | SRB | NCI-60 screen |  | TGI | 1.03 µM and 1.98 µM
